{"data": "Published values of several laboratories", "note": "Numbered parts are unrelated; each lists some results of a single study.", "UniProt Q15365, sequence (1-183, looked up)": "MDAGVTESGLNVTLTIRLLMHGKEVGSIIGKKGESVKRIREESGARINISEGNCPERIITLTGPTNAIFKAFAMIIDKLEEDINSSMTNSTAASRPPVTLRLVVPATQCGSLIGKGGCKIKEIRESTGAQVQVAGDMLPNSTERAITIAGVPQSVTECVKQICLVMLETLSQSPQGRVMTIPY", "UniProt Q12851, sequence (whole entry, looked up)": "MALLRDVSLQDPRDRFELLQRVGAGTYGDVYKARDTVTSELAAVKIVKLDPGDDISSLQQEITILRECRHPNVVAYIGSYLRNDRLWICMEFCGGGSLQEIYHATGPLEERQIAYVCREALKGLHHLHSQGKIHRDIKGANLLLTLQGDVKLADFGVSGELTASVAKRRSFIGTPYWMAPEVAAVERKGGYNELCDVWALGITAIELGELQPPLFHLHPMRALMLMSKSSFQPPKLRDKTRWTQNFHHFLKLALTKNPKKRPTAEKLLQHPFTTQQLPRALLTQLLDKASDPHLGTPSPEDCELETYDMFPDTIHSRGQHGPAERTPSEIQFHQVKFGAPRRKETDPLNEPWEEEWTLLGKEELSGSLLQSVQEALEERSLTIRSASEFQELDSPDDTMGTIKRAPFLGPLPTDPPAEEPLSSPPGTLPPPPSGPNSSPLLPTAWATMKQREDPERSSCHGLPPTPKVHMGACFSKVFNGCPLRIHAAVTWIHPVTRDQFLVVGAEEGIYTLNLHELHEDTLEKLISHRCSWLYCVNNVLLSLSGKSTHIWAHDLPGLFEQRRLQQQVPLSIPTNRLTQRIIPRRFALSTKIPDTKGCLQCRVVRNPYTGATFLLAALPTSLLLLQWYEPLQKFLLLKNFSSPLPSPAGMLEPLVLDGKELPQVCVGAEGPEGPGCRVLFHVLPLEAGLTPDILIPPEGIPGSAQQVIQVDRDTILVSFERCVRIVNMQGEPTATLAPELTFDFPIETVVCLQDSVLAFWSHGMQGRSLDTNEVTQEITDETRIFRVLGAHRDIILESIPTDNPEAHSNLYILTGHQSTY"}
{"data": "Sample 1", "target": "Myc proto-oncogene protein, bHLH-zipper, MAX partner unstated (MYC, Homo sapiens, UniProt P01106, residues 368-449)", "technique": "protein-binding microarray", "molecule type": "double-stranded DNA, one strand shown", "matrix": "in vitro", "concentration": "not given", "setting": "k-mer, scored over probes, only values ≥0.25", "reading": "higher = stronger binding", "UniProt P01106, sequence (368-449, looked up)": "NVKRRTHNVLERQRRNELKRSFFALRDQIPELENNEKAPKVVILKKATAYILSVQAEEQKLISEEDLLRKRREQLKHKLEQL"}
{"Oligonucleotide": "CGTGTTAC", "E-score": 0.385}
{"Oligonucleotide": "CGCATGGA", "E-score": 0.43}
{"Oligonucleotide": "ATGGTCAC", "E-score": 0.288}
{"Oligonucleotide": "CCCGGCAC", "E-score": 0.251}
{"Oligonucleotide": "ACCGCACC", "E-score": 0.272}
{"Oligonucleotide": "AGCGTGAT", "E-score": 0.302}
{"Oligonucleotide": "ATGGCCAC", "E-score": 0.349}
{"Oligonucleotide": "AACATGAG", "E-score": 0.33}
{"data": "Sample 2", "target": "Centromere-binding protein 1, full length, His-tagged (CBF1, Saccharomyces cerevisiae, UniProt P17106, residues 1-351)", "technique": "competition protein-binding microarray", "molecule type": "double-stranded DNA, one strand shown", "matrix": "in vitro", "concentration": "2 µM", "setting": "whole 60-bp probe, lowest competitor level", "together with": "Pho4 competitor, 0.05 µM", "reading": "higher = stronger binding", "all sequences stand within": "… GTCTTGATTCGCTTGACGCTGCTG", "UniProt P17106, sequence (whole entry, looked up)": "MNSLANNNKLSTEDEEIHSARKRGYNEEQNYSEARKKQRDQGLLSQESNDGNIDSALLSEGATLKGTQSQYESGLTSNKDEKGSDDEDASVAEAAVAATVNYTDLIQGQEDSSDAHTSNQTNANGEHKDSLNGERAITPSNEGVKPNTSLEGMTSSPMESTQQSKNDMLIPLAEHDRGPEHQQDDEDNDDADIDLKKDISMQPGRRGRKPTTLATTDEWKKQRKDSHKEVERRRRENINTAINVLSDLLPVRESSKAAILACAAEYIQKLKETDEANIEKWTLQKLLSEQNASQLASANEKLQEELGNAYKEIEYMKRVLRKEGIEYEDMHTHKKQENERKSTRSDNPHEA"}
{"Oligonucleotide": "CATACCCAACCTTGTAGGGTGGGTGAAGATATTTGT", "fluorescence intensity [a.u.]": 61}
{"Oligonucleotide": "CTGGTGTCTAATATGCACATGCCTGGTACTACCAGT", "fluorescence intensity [a.u.]": 99.4}
{"Oligonucleotide": "CTTTCCCGATCTTGTACAGTGGGTGTAGCACATTTG", "fluorescence intensity [a.u.]": 73.2}
{"Oligonucleotide": "AGGAAATCAAGACTGAACGTGTTGAAGATCAAAAGG", "fluorescence intensity [a.u.]": 87.4}
{"Oligonucleotide": "GCTTTAGTTGCTCTTCGCGTGGTGAATATTTGCAGA", "fluorescence intensity [a.u.]": 84.9}
{"Oligonucleotide": "CTAACGAAGGTTTGGGTCGTGGGTGACAAGCCAAGT", "fluorescence intensity [a.u.]": 57.6}
{"Oligonucleotide": "AGCAGCATTATCCATGACATGACAAGGATCTACCGA", "fluorescence intensity [a.u.]": 62.8}
{"Oligonucleotide": "CTTTCCCGATCTTGTTTTGTGGGTGTAGCACATTTG", "fluorescence intensity [a.u.]": 75.4}
{"data": "Further values, each from its own experiment"}
{"Molecule": "AAAAAAAA (biotin)", "target": "Poly(rC)-binding protein 1, KH domains 1-2 (PCBP1, Homo sapiens, UniProt Q15365, residues 1-183)", "test": "protein domain microarray", "system": "RNA, in vitro", "setting": "not given, poly(A) 8-mer RNA, whole probe, immobilized GST-fusion domains, most near background", "scale": "relative to: GST loading signal, higher = stronger binding", "measurement": "signal ratio", "result": 0.0307}
{"Molecule": "CCN(CC)CCNC(=O)c1c(C)[nH]c(/C=C2\\C(=O)Nc3ccc(Cl)cc32)c1C", "target": "MAP4K2 (Homo sapiens, UniProt Q12851)", "test": "enzyme activity, inhibitor", "setting": "0.5 µM", "scale": "relative to: control", "measurement": "remaining activity", "result": "8.07%"}
{"note": "For quick reference, copied from above (sample 1):"}
{"Oligonucleotide": "ATGGCCAC", "E-score": 0.349}
{"Oligonucleotide": "AACATGAG", "E-score": 0.33}
